Measured values of several laboratories.
Numbered parts are unrelated; each lists some results of a single study. Several values in a cell are separate wells, animals, samples, runs or records.
UniProt P62344, sequence (whole entry, looked up): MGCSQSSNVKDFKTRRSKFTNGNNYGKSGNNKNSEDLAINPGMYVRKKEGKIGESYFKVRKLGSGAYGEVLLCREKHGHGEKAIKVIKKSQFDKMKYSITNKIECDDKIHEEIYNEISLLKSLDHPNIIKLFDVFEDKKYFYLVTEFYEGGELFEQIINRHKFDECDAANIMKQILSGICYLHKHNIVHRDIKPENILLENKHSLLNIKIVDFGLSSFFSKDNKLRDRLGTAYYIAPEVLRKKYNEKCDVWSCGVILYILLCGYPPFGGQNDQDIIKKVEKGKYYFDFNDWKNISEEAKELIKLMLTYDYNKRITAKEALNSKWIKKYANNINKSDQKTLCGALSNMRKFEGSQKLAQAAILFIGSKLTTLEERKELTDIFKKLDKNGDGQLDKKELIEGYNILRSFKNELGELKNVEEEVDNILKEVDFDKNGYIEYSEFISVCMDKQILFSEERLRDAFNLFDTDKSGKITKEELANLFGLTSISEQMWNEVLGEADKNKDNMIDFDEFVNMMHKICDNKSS
UniProt Q6XUX3, sequence (whole entry, looked up): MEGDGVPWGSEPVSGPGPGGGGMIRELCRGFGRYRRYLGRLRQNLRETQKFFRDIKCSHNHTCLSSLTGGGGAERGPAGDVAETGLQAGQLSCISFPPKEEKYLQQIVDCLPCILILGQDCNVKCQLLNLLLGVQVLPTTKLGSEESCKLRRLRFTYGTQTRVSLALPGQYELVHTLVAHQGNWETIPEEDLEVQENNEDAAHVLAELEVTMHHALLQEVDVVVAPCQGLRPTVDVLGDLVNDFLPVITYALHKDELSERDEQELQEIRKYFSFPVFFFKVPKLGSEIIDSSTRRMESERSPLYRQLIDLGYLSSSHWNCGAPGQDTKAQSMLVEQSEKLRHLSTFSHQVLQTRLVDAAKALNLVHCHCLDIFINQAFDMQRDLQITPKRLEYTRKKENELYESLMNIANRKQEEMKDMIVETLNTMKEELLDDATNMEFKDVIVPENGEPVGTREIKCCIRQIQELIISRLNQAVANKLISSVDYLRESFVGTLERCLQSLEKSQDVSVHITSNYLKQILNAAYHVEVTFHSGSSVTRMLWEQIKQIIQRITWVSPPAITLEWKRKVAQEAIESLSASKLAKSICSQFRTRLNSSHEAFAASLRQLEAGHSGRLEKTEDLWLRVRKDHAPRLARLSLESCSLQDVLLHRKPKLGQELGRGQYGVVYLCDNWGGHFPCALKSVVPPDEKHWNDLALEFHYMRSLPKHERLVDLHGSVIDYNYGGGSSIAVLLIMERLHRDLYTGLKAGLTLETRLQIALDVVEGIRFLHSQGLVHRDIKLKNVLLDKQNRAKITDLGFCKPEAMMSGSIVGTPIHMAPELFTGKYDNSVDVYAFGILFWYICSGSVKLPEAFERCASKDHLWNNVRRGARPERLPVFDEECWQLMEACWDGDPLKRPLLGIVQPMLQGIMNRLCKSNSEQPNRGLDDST
UniProt Q96BR1, sequence (whole entry, looked up): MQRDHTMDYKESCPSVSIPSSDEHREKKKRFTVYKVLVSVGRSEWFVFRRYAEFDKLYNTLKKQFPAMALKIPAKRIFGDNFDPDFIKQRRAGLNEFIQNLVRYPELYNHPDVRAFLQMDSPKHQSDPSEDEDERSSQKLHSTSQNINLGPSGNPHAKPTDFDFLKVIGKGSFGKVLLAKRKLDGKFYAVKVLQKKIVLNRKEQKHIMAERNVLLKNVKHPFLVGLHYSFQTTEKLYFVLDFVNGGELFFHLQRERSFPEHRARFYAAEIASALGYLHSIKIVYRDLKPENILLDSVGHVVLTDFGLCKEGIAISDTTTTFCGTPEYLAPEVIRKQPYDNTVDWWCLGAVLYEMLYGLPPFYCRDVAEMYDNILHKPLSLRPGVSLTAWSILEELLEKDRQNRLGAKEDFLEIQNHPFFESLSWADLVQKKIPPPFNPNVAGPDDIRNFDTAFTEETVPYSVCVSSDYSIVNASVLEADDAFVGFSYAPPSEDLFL
UniProt P21802, sequence (whole entry, looked up): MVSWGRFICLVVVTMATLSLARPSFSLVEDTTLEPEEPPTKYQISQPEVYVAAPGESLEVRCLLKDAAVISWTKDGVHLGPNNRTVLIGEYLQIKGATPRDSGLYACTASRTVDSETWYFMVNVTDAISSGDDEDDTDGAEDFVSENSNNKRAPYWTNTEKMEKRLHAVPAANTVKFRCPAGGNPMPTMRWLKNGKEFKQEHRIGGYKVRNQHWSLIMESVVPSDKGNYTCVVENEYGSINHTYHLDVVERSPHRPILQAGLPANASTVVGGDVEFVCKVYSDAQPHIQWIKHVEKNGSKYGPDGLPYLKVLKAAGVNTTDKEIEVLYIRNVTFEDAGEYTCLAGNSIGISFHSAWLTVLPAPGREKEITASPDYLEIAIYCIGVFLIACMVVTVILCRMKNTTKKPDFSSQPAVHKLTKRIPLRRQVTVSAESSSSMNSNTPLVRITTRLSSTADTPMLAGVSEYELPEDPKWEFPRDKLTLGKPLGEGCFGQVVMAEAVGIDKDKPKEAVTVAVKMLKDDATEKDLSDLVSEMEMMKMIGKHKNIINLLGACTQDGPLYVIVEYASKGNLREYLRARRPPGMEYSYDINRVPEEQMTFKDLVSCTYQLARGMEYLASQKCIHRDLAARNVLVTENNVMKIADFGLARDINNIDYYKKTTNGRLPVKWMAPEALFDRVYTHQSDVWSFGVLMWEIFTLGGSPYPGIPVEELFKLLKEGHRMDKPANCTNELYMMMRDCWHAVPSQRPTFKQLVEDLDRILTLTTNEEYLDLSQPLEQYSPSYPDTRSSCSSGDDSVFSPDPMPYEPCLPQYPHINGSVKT
UniProt P9WI81, sequence (whole entry, looked up): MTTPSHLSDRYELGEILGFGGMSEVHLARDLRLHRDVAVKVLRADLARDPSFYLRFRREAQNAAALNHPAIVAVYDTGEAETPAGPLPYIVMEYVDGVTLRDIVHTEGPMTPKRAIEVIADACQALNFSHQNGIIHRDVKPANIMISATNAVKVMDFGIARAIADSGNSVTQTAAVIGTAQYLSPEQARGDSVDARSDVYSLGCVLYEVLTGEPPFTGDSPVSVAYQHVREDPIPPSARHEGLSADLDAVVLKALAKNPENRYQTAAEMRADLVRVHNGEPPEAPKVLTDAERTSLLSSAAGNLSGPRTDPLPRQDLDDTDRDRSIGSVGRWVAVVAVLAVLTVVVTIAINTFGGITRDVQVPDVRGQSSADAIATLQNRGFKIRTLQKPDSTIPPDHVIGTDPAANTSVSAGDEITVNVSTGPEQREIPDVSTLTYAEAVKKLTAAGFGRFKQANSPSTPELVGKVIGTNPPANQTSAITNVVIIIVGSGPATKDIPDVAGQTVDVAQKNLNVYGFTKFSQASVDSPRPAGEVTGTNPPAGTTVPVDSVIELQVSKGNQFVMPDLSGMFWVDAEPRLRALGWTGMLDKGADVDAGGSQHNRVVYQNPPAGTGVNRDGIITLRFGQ

Study 1
Compound: O=C1NC(=O)c2c1c1c3ccccc3n3c1c1c2c2ccccc2n1[C@H]1CC[C@@H]3O1
Effect on: enzyme activity
Action: inhibitor
Tested at: 0.5 µM
Baseline: control
target | remaining activity [%]
Serine/threonine-protein kinase Sgk3 (SGK3, Homo sapiens, UniProt Q96BR1) | 71.7
Dual serine/threonine and tyrosine protein kinase (DSTYK, Homo sapiens, UniProt Q6XUX3) | 45.5
Serine/threonine-protein kinase TAO1 (TAOK1, Homo sapiens, UniProt Q7L7X3) | 66.9
Fibroblast growth factor receptor 2 (FGFR2, Homo sapiens, UniProt P21802) | 34.1

Study 2
Structure (SMILES): CC(C)S(=O)(=O)c1cc2c(Nc3ccc4sc(C5CCCC5)nc4c3)ccnc2cc1OCCO
Cell line: L929 RIPK3-/- reexpressing RIPK3 K51A/R69H
Technique: CCK-8
tested at | survival
3.125 µM | 102% and 96.9% and 89.1% and 86.3%
12.5 µM | 85.5% and 81.6% and 79.4% and 82.8%
50 µM | 28.1% and 30.1% and 29.7% and 28.6% and 31.3%
25 µM | 61.1% and 63.3% and 60.1% and 62.3%

Study 3
Target: Beta-1 adrenergic receptor (ADRB1, Homo sapiens, UniProt P08588)
UniProt P08588, sequence (whole entry, looked up): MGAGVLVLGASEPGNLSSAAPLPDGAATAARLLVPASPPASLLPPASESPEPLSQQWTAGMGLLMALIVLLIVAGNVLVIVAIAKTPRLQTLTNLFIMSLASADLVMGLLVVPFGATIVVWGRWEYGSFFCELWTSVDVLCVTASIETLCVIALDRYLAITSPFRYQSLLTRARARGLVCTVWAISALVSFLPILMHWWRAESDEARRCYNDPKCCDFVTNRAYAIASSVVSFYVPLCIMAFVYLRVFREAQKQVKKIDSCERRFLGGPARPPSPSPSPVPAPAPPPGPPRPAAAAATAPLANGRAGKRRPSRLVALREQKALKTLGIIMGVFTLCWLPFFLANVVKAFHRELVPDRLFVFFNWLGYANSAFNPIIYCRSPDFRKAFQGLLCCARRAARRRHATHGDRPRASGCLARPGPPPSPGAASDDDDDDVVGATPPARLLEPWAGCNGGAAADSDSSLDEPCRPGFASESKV
Action: agonist
SMILES | EC50
COc1cc2c(cc1OCc1ccccc1)N(C(=O)c1cccc3[nH]ccc13)CC21CCN(C)CC1 | ≥ 100 µM
ClC1=C(Cl)[C@]2(Cl)[C@@H]3[C@@H]4C[C@@H]([C@H]5O[C@@H]45)[C@@H]3[C@@]1(Cl)C2(Cl)Cl | 39.8 µM
CC(C)[C@H]1C(=O)N2CCC[C@H]2[C@]2(O)O[C@](NC(=O)[C@@H]3C=C4c5cccc6[nH]cc(c56)C[C@H]4N(C)C3)(C(C)C)C(=O)N12 | ≥ 100 µM

Single results of other studies
Effect on: cell-free assay
Technique: competition with immobilised ligand
Tested at: 1 µM
CRK2: Cyclin-dependent kinase 2 homolog (CRK2, Plasmodium falciparum, UniProt P61075)
UniProt P61075, sequence (whole entry, looked up): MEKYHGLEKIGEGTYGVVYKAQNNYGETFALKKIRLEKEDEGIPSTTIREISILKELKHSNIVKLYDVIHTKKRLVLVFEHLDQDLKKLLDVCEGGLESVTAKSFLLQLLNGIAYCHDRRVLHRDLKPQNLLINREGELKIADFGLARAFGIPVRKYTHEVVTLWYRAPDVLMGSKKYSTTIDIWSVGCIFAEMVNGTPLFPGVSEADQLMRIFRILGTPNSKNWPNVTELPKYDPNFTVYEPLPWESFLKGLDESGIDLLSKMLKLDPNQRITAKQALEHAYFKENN
SMILES | target | remaining binding [%]
C[C@H](NC(=O)c1cnc2n1[C@](C)(Cc1ccc(C#N)cc1)C(=O)N2c1cc(Cl)c(F)c(Cl)c1)C(=O)NC1(c2ccccn2)CC1 | CRK2 | 100
CC(=O)c1c(NS(C)(=O)=O)c2cc(-c3ccc(Cl)cc3)c(-c3ccc(Cl)cc3Cl)nc2n(C)c1=O | Serine/threonine-protein kinase PknB (pknB, Mycobacterium tuberculosis, UniProt P9WI81) | 83
O=C(NS(=O)(=O)c1ccc(NCC2CCOCC2)c([N+](=O)[O-])c1)c1ccc(N2CCN(Cc3ccc(C(F)(F)F)cc3-c3ccc(Cl)cc3)CC2)cc1Oc1cnc2[nH]ccc2c1 | CRK2 | 100
O=C(Nc1cnc(Oc2ccc(F)cc2)nc1)N1CCc2ncccc2[C@@H]1c1ccc(F)cc1 | Calcium-dependent protein kinase 1 (CDPK1, Plasmodium falciparum, UniProt P62344) | 95

For quick reference, copied from above (single results of other studies):
SMILES | target | remaining binding [%]
C[C@H](NC(=O)c1cnc2n1[C@](C)(Cc1ccc(C#N)cc1)C(=O)N2c1cc(Cl)c(F)c(Cl)c1)C(=O)NC1(c2ccccn2)CC1 | CRK2 | 100
CC(=O)c1c(NS(C)(=O)=O)c2cc(-c3ccc(Cl)cc3)c(-c3ccc(Cl)cc3Cl)nc2n(C)c1=O | Serine/threonine-protein kinase PknB (pknB, Mycobacterium tuberculosis, UniProt P9WI81) | 83
